Measured values of several laboratories.
Every numbered part comes from another study and shows a few of its results, in no order. Substitutions count along the parent as printed.

Series 1
Target: CCNE1, cyclin fold, Cln2 fusion (human)
Technique: yeast growth competition, sequencing
Medium: yeast
Notes: strong parent motif
Reference: not given
Reading: higher = stronger binding
Starting sequence: SCAPER docking peptide (human); SNARRSLNFGGST
`N2P` — result for “normalised enrichment score”: 1.45.
Under “normalised enrichment score”, `S12P` is recorded as 1.52.
For `N2W`, “normalised enrichment score” read 0.67.
`A3R` — result for “normalised enrichment score”: -0.325.
`G11W` — result for “normalised enrichment score”: 1.01.
`L7E` — result for “normalised enrichment score”: -0.471.
Under “normalised enrichment score”, `R4V` is recorded as 1.14.
`R4Y` — result for “normalised enrichment score”: 0.181.
Under “normalised enrichment score”, `R4Q` is recorded as -0.613.
Under “normalised enrichment score”, `T13E` is recorded as 1.3.
Under “normalised enrichment score”, `R5P` is recorded as 0.121.
`G11Q`: “normalised enrichment score” 0.893.
`G10K` — result for “normalised enrichment score”: 0.645.
Under “normalised enrichment score”, `G10P` is recorded as 0.826.
Under “normalised enrichment score”, `R5K` is recorded as 0.0414.
For `N8C`, “normalised enrichment score” read 0.456.

Series 2
Target: Histone acetyltransferase KAT6A, winged helix 1, GST fusion (KAT6A, Homo sapiens, UniProt Q92794, residues 1-85)
Technique: protein binding microarray
Molecule type: double-stranded DNA, one strand shown
Medium: in vitro
Concentration: not given
Notes: 8-mer, flanks averaged, mean of 2 arrays, mostly near background
Reference: not given
Reading: higher = stronger binding
Target sequence (chain): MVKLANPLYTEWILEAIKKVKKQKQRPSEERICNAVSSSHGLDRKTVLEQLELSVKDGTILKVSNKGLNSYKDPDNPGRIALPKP
`GGCTTATA` has an E-score of -0.00919.
For `CCCGAGGC`, the E-score was 0.248.
`ATCGAGAT` has an E-score of -0.1.
With `ATTCGAAC` the E-score was -0.199.
The E-score of `AAGTTGTG` is reported as -0.279.
With `ACATGGTA` the E-score was 0.0165.
With `ATATTAAT` the E-score was 0.0233.
With `GACCTGCC` the E-score was -0.0518.
The E-score of `ATGACAAA` is reported as -0.178.
With `GTGCTAAC` the E-score was 0.00184.
With `ATGTGGTA` the E-score was -0.15.
With `CCTCACGA` the E-score was -0.12.
With `GGGAACAC` the E-score was -0.0831.
For `CGGTTGCC`, the E-score was 0.221.
The E-score of `AGCTCTTG` is reported as -0.264.
With `CGACATAC` the E-score was 0.146.
With `CCTTTACG` the E-score was 0.16.
For `AAATCAGG`, the E-score was -0.0618.
The E-score of `GACTGCGC` is reported as 0.259.
`GCACAACC` gave an E-score of -0.111.
`AATGAGAA` gave an E-score of -0.0823.
For `CCTTAAGA`, the E-score was -0.162.
With `CCCACAGC` the E-score was -0.217.

Series 3
Target: RNA binding protein fox-1 homolog 2, RRM domain, GST-SBP tag (RBFOX2, Homo sapiens, UniProt O43251-10, residues 100-194)
Technique: RNA Bind-n-Seq
Molecule type: RNA
Medium: in vitro
Concentration: 365 nM
Notes: natural RNA segment, single round, ends assumed
Reference: no-protein control
Reading: higher = stronger binding
Target sequence (chain): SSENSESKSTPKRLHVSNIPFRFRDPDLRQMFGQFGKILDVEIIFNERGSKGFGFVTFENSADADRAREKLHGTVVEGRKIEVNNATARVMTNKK
`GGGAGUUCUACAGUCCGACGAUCGCUGAGCUUAUUCUUAGGGUAUGACCUGGCAUUAUUUCCAGUGACUAGUCAGGCAUUAUGCCUGAUGCAUACGCCUCCCGUGCACCCCUAUCUAGCCUUCAGAUGUCCUCUGGAAUUCUCGGGUGCCAA`: “RBNS enrichment (R)” 0.195.
Under “RBNS enrichment (R)”, `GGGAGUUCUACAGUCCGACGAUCUUUCCCUCCCUCACUUUUUCCUUUGUAAACACUCAUGACUGCUUCUCUGUCUCGAGUCAUCUCUGCAUUAACUCCCCUUCGUGGUCACUAGAGGGCUCUCUGAUGCCUUCUGGAAUUCUCGGGUGCCAA` is recorded as 0.883.
Under “RBNS enrichment (R)”, `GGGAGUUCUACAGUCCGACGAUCAGGAUAGCAAGCAAUGGCAUUCUUGAACAGUCUAAGGCAGGUUUCUCAGUGUGGUCCUGAGAACAGAAGCAUCUGCAUCACCUGGGAAUGUAUUAGAAAUGCAAGUUCCCUGGAAUUCUCGGGUGCCAA` is recorded as 0.588.
`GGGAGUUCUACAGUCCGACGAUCCUUUGAAAAUCCCCAAUUUGGUUCUGCUUUUUGACCUCUCUCUACCUUUUCAGGGUAAUCUUUGUGGCACAAACGAUAGCAUUUCCAAGCUUUAGAGUUUUCUGAAUUCCUGGAAUUCUCGGGUGCCAA` — result for “RBNS enrichment (R)”: 0.308.
Under “RBNS enrichment (R)”, `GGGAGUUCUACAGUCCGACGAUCGGUAGUGACUGAGAUGUAAAAAUAGAUUUUAGAAUUAAAACAAAAUCCAAGUCCUCACACCCCUGUCAUCCCAGGAGAUCUUUCCUUGUGGUGGUUUCUGUGAGAAUUGGUGGAAUUCUCGGGUGCCAA` is recorded as 0.543.
`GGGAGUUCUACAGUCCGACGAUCUUGGGAGCUAUUGAGCCACCUGGGAUGAGAUGACACAAGGCACUCCUACCACUGAGCGCCUUUGCCAGGUCCAGCCUGGGCUCAGGUUCCAAGACUCAGCUGCCUAAUCCUGGAAUUCUCGGGUGCCAA` — result for “RBNS enrichment (R)”: 0.331.
Under “RBNS enrichment (R)”, `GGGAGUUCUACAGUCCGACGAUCUCUGCACUAUUAUCUGAUGACAUGUUGGUAAUUUUAAAGACUGCAAGGCAGUUUAGAGAAUGAAGUAAACCAAUAGAUACUCUUUUGAUUCUCCAAAGAAAUAUAAUUUUUGGAAUUCUCGGGUGCCAA` is recorded as 0.672.
Under “RBNS enrichment (R)”, `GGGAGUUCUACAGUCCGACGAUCUUUCUAUUCCCUUUCUAACUGCCCAUCGGGCUCAGAACCCCAAUAAUCCCUUCCUUUCACUAUCUUCUUUUUGGGGGGUAGGUGGAAGGGAUUGACAUUGGAUGGGGGAGUGGAAUUCUCGGGUGCCAA` is recorded as 0.305.
For `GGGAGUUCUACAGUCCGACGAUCGAGCAGGUUACAAUGUUACUUCAGCCCACAGUUUAUUUCUAUACUUGAGUUCUUAAGUACAGAAGAUAGAAGUGAUUUAAAUGGCAUAGUAUAUAUAUCAUUUUCUGGCCUGGAAUUCUCGGGUGCCAA`, “RBNS enrichment (R)” read 0.271.
For `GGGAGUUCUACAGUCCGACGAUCCCAUAUUUGUGGAUCGGGUAGUGGGAAAAGAGAUUAUAAUACUUGUCUUUCUCUCCUCUCCCUCCAUCCCUCAAAAGAUCUUUAUGCAUUUCCCACUACUCCCUUACUGUUGGAAUUCUCGGGUGCCAA`, “RBNS enrichment (R)” read 0.848.
For `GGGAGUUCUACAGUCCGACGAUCCUAUAACAAGGAUAGUUUAUAGUCUUUCCAGUUAUUUAAUGAAUAAAUGACGUUUAUUAAAAACAUUCAACAAAUUGUUGCCUUUUUAAAAUUAUCACACUUGCACAUGAUGGAAUUCUCGGGUGCCAA`, “RBNS enrichment (R)” read 1.31.
Under “RBNS enrichment (R)”, `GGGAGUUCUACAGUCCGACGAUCUGAAGAGCAAUUCUCACUGGUAACUUGACAUCUCUCAAUUUCAGGAUCUUUGCCUCUCAUUAAAAGUCAUGGAAAAUAUACACAUUUAAGGUGAAUAGACACAUUAAGGUUGGAAUUCUCGGGUGCCAA` is recorded as 0.23.

Series 4
Target: Interferon regulatory factor 7, full length, phosphomimetic (IRF7, Homo sapiens, UniProt Q92985, residues 1-503, S471D/S472D/S475D/S476D/S477D/S483D/S484D/S487D)
Technique: protein-binding microarray
Molecule type: double-stranded DNA, one strand shown
Medium: in vitro
Concentration: 2200 nM top
Notes: 60-bp whole probe
Added: salmon DNA 0.4 mg/ml
Reference: random background probes
Reading: higher = stronger binding
Constant ends, left off below: GCCTAGCAC … GTCTTGATTCGCTTGACGCTGCTG
Target sequence (chain): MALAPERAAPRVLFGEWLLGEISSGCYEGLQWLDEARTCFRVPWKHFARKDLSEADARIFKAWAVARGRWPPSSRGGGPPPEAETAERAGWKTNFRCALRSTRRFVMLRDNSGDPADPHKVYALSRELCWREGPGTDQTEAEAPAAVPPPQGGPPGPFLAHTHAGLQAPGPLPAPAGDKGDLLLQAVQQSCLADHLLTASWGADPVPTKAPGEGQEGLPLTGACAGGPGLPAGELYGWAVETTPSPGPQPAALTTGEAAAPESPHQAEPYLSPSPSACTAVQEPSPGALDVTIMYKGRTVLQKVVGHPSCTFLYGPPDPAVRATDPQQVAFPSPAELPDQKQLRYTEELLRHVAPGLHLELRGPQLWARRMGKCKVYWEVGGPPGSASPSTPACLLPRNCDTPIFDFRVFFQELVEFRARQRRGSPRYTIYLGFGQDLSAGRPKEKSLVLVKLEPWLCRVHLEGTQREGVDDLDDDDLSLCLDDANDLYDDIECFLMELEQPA
`TTTGGTCTCCTTTTCCTTTAGTGCTAG` — result for “fitted relative affinity”: 2.81 z-score.
`GACGATCTCGGACTGGAGACGTGCTAG`: “fitted relative affinity” -0.116 z-score.
For `GACGGACTGGGTATCGGCACGTGCTAG`, “fitted relative affinity” read -0.81 z-score.
`GACGATTTCAGATTGGAGACGTGCTAG`: “fitted relative affinity” 1.37 z-score.
Under “fitted relative affinity”, `GACGCACTGGACACTGGGGACGTGCTA` is recorded as -0.479 z-score.
Under “fitted relative affinity”, `TTCATTTTCTTTAACTCATTGTGCTAG` is recorded as 1.8 z-score.
For `CAGCACATGCATCTCCCACAGTGCTAG`, “fitted relative affinity” read 0.586 z-score.
`TCAATTTTTACATTATTACTGTGCTAG`: “fitted relative affinity” 0.932 z-score.
`GAGGGACTGCTTCTCCTGACGTGCTAG` — result for “fitted relative affinity”: 0.0947 z-score.
`TTGGTTCTCAGCTTGGGGCAGTGCTAG` — result for “fitted relative affinity”: 0.786 z-score.
`TCATGTCTGTGTCACAGAGAGTGCTAG` — result for “fitted relative affinity”: 0.804 z-score.
`GGAGTGGGAAGCTTCGCTCCGTGCTAG` — result for “fitted relative affinity”: -0.129 z-score.
`TTAGGTAGCGACACTGGGTTAGTGCTA` — result for “fitted relative affinity”: -0.74 z-score.
Under “fitted relative affinity”, `GACGATTTCAGGTTCGAGACGTGCTAG` is recorded as 1.63 z-score.
`TTAGGTTTCGGCACTGGGTTAGTGCTA`: “fitted relative affinity” 1.81 z-score.
Under “fitted relative affinity”, `TCAGTTTCCATTTTCTGACTGTGCTAG` is recorded as 7.61 z-score.
`TCAGTAATCGAAATCTTACTGTGCTAG`: “fitted relative affinity” 0.339 z-score.
`TTAGGTTTCGGTCTGGGTTAGTGCTAG` — result for “fitted relative affinity”: 7.3 z-score.
`TTATATTTCAGTTCCGATTAGTGCTAG`: “fitted relative affinity” 2.29 z-score.
Under “fitted relative affinity”, `GACGGTTTCGGTAGCGGGACGTGCTAG` is recorded as 3.37 z-score.
`GACGGTATCGACTATAGGGACGTGCTA` — result for “fitted relative affinity”: -0.447 z-score.
`TCATTCATGAAGTTTTAAACTGTGCTA` — result for “fitted relative affinity”: -0.194 z-score.
`TCTGTTTTTGCTTTCCTTCAGTGCTAG`: “fitted relative affinity” 5.32 z-score.
For `TCATTTTTCACCTGCACACTGTGCTAG`, “fitted relative affinity” read 2.93 z-score.
For `TACAAATCCAGCCCTACAGAGTGCTAG`, “fitted relative affinity” read 0.303 z-score.

A few entries again (series 1):
For `N8C`, “normalised enrichment score” read 0.456.
Under “normalised enrichment score”, `R4Q` is recorded as -0.613.
For `N2W`, “normalised enrichment score” read 0.67.
`G11W` — result for “normalised enrichment score”: 1.01.
Under “normalised enrichment score”, `R5K` is recorded as 0.0414.
